Measured values of several laboratories.
Lines come from different studies, so protocols differ. ± gives the spread as reported.
Method: steady-state kinetics
B1: enzyme (Salmonella enterica, UniProt P31570); chain MSDERYQQRQQKVKDRVDARVAQAQEERGIIIVFTGNGKGKTTAAFGTAARAVGHGKNVGVVQFIKGTWPNGERNLLEPHGVEFQVMATGFTWETQNREADTAACMAVWQHGKRMLADPLLDMVVLDELTYMVAYDYLPLEEVISALNARPGHQTVIITGRGCHRDILDLADTVSELRPVKHAFDAGVKAQMGIDY
B2: Tcur_2987 W376F (Thermomonospora curvata, UniProt D1A807); chain ACSEERAAGARPSATQTTGTATEPFHGPHQAGIATPPQAHAVFLGLDLRKGTGRKELGRLMRLLTDDARRLTQGRPALADPEPDLAPLPSRLTFTFGFGPGLFKAAGLEKQRPEGLRPLPPFKVDRLEDRWSGGDLLVQICCDDPITLAHALRMTVKDARAFTRVRWVQRGFRRSPGVQSSGATQRNLMGQLDGTVNPVPGTADFDQAVWVQDGPEWLRGGTTLVLRRIRMELEKWDEADPAGKEFAVGRRLTSGAPLTGRHEHDEPDFDAVDSAGFPVIAENAHIRLAHVDSPRLRMLRRPYNYDEGLTADGRSDAGLLFAAYQADIDRQFIPVQRRLDEGGDLLNLFTTPIGSAVFAIPPGCDENGWIGQGLLG
B3: Paox H64Q (Mus musculus, UniProt Q8C0L6); chain MAFPGPRVLVVGSGIAGLGAAQKLCSHRAAPHLRVLEATASAGGRIRSERCFGGVVELGAHWIQGPSQDNPVFQLAAEFGLLGEKELSEENQLVDTGGHVALPSMIWSSSGTSVSLELMTEMARLFYGLIERTREFLNESETPMASVGEFLKKEISQQVASWTEDDEDTRKRKLAILNTFFNIECCVSGTHSMDLVALAPFGEYTVLPGLDCILAGGYQGLTDRILASLPKDTVAFDKPVKTIHWNGSFQEAAFPGETFPVLVECEDGARLPAHHVIVTVPLGFLKEHQDTFFEPPLPAKKAEAIKKLGFGTNNKIFLEFEEPFWEPDCQFIQVVWEDTSPLQDTALSLQDTWFKKLIGFLVQPSFESSHVLCGFIAGLESEFMETLSDEEVLLSLTQVLRRVTGNPQLPAAKSVRRSQWHSAPYTRGSYSYVAVGSTGDDLDLMAQPLPEDGTGTQLQVLFAGEATHRTFYSTTHGALLSGWREADRLVSLWDSQVEQSRPRL
B4: hdhb (Clostridium sardiniense, UniProt G9FRD6); chain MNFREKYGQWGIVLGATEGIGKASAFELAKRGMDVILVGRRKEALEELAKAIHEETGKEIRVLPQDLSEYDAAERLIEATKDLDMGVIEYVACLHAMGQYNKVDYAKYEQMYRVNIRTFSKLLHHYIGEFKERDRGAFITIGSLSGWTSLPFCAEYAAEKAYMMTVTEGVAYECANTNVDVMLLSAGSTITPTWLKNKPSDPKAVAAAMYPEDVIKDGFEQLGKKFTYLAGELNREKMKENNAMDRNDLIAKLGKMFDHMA
B5: Pck1 A467G (Rattus norvegicus, UniProt P07379); chain MPPQLHNGLDFSAKVIQGSLDSLPQEVRKFVEGNAQLCQPEYIHICDGSEEEYGRLLAHMQEEGVIRKLKKYDNCWLALTDPRDVARIESKTVIITQEQRDTVPIPKSGQSQLGRWMSEEDFEKAFNARFPGCMKGRTMYVIPFSMGPLGSPLAKIGIELTDSPYVVASMRIMTRMGTSVLEALGDGEFIKCLHSVGCPLPLKKPLVNNWACNPELTLIAHLPDRREIISFGSGYGGNSLLGKKCFALRIASRLAKEEGWLAEHMLILGITNPEGKKKYLAAAFPSACGKTNLAMMNPTLPGWKVECVGDDIAWMKFDAQGNLRAINPENGFFGVAPGTSVKTNPNAIKTIQKNTIFTNVAETSDGGVYWEGIDEPLAPGVTITSWKNKEWRPQDEEPCAHPNSRFCTPASQCPIIDPAWESPEGVPIEGIIFGGRRPAGVPLVYEALSWQHGVFVGAAMRSEATAGAEHKGKVIMHDPFAMRPFFGYNFGKYLAHWLSMAHRPAAKLPKIFHVNWFRKDKNGKFLWPGFGENSRVLEWMFGRIEGEDSAKLTPIGYVPKEDALNLKGLGDVNVEELFGISKEFWEKEVEEIDKYLEDQVNADLPYEIERELRALKQRISQM
B6: PduO F112H (Limosilactobacillus reuteri, UniProt Q50EJ2); chain MKIYTKNGDKGQTRIIGKQILYKNDPRVAAYGEVDELNSWVGYTKSLINSHTQVLSNELEEIQQLLFDCGHDLATPADDERHSFKFKQEQPTVWLEEKIDNYTQVVPAVKKHILPGGTQLASALHVARTITRRAERQIVQLMREEQINQDVLIFINRLSDYFFAAARYANYLEQQPDMLYRNSKDVFR
B7: Rtr1 residues 1-226 (Saccharomyces cerevisiae, UniProt P40084); chain MATIEDIKETALIPFQKHRQLSMHEAEVITLEIIGLLCDSECKDEKTLKYLGRFLTPDMYQDLVDERNLNKRCGYPLCGKSPERIRDPFSMNDTTKKFLLENNPYAYLSHYCSKFHFRCSQFYQVQLSDEALFARTGVHLFEDPEQDKHDIDFKVTLFEELLREKASEEDIKSLISGLKKLGLNPDSGTTEKDDTELEDDLSKWLAQIKIVENDNPSILGDFTRED
B8: asnB E349Q (Escherichia coli, UniProt P22106); chain CSIFGVFDIKTDAVELRKKALELSRLMRHRGPDWSGIYASDNAILAHERLSIVDVNAGAQPLYNQQKTHVLAVNGEIYNHQALRAEYGDRYQFQTGSDCEVILALYQEKGPEFLDDLQGMFAFALYDSEKDAYLIGRDHLGIIPLYMGYDEHGQLYVASEMKALVPVCRTIKEFPAGSYLWSQDGEIRSYYHRDWFDYDAVKDNVTDKNELRQALEDSVKSHLMSDVPYGVLLSGGLDSSIISAITKKYAARRVEDQERSEAWWPQLHSFAVGLPGSPDLKAAQEVANHLGTVHHEIHFTVQEGLDAIRDVIYHIETYDVTTIRASTPMYLMSRKIKAMGIKMVLSGQGSDEVFGGYLYFHKAPNAKELHEETVRKLLALHMYDCARANKAMSAWGVEARVPFLDKKFLDVAMRINPQDKMCGNGKMEKHILRECFEAYLPASVAWRQKEQFSDGVGYSWIDTLKEVAAQQVSDQQLETARFRFPYNTPTSKEAYLYREIFEELFPLPSAAECVPGGPSVACSSAKAIEWDEAFKKMDDPSGRAVGVHQSAYK
B9: putA E639A (Bradyrhizobium diazoefficiens, UniProt Q89E26); chain MPNIPPPFTAPYAPDDAEIAARLLPASHLSPPQEARIHRTATRLIEAIRKRDDRLGGVEDMLREFALSTKEGLALMVLAEALLRVPDARTADQFIEDKLGEGDFIHHETKSTAFLVNASAWALGLSARVIQPGETPDGTIGRLVKRLGAPAVRTATRQAMRLMGNHFVLGETIEQALERGKPRSGQKTRYSFDMLGEGARTAADARRYFDAYASAIETIGKAAGNHALPDRPGISVKLSALHPRFEAISRARVMVELVPQLLDLAQRAKAHDLNFTVDAEEADRLELSLDVIAATLADPSLKGWDGFGLAIQAYQKRASAVIDYVDALARAHDRKLMVRLVKGAYWDTEIKRAQERGLDGYPVFTRKAMTDLNYVACASKLLALRPRIFPQFATHNALTVATVLEMAEGSSGFEFQRLHGMGEALYEQLAKDHADIAYRTYAPVGSHRDLLAYLVRRLLENGANSSFVAQAADYRVPVPALLQRPADAIVRPQAAAHPRIPLPCDLFAPERRNSRGVEFGARTALDQLLTDVKAETGDLKPIADATPDQAHAAVAAARAGFAGWSRTPAGIRAAALEQAAHLLESRSAHFIALLQREGGKTLDDALSELREAADFCRYYAAQGRKLFGSETAMPGPTGASNALTMRGRGVFVAISPWNFPLAIFLGQVTAALMAGNSVVAKPAEQTPRIAREAVALLHEAGIPKSALYLVTGDGRIGAALTAHPDIAGVVFTGSTEVARSINRALAAKDGPIVPLIAETGGINAMIADATALPEQVADDVVTSAFRSAGQRCSALRLLFVQEDVADRMIEMVAGAARELKIGDPSDVATHVGPVIDVEAKQRLDAHIARMKTEARLHFAGPAPEGCFVAPHIFELTEAGQLTEEVFGPILHVVRYRPENLERVLRAIERTGYGLTLGVHSRIDDSIEAIIDRVQVGNIYVNRNMIGAVVGVQPFGGNGLSGTGPKAGGPHYLARFATEQTVTINTAAAGGNAALLAGEE
B10: cyc1 V329M (Streptomyces coelicolor, UniProt Q9K499); chain MHAFPHGTTATPTAIAVPPSLRLPVIEAAFPRQLHPYWPKLQETTRTWLLEKRLMPADKVEEYADGLCYTDLMAGYYLGAPDEVLQAIADYSAWFFVWDDRHDRDIVHGRAGAWRRLRGLLHTALDSPGDHLHHEDTLVAGFADSVRRLYAFLPATWNARFARHFHTVIEAYDREFHNRTRGIVPGVEEYLELRRLTFAHWIWTDLLEPSSGCELPDAVRKHPAYRRAALLSQEFAAWYNDLCSLPKEIAGDEVHNLGISLITHHSLTLEEAIGEVRRRVEECITEFLAVERDALRFADELADGTVRGKELSGAVRANVGNMRNWFSSMYWFHHESGRYMVDSWDDRSTPPYVNNEAAGEK
UniProt Q7L266, sequence (whole entry, looked up): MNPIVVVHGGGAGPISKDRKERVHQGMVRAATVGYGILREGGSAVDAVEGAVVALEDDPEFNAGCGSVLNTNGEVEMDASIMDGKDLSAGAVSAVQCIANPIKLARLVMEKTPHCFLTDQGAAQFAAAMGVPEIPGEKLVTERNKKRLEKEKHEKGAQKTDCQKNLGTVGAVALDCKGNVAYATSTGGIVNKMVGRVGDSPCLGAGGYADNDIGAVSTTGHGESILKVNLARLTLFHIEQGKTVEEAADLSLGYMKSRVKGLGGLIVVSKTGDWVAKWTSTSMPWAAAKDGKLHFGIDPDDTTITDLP
UniProt P07914, sequence (whole entry, looked up): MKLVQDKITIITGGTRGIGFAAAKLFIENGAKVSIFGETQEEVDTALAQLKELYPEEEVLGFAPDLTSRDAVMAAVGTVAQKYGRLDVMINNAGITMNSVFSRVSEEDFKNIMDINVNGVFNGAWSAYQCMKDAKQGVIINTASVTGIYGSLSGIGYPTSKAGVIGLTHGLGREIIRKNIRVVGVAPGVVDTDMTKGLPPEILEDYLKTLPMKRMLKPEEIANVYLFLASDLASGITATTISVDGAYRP

The kcat/Km of `B1 (enzyme)` is reported as 10000 ± 2000 M⁻¹ s⁻¹ (Nc1ncnc2c1ncn2[C@@H]1O[C@H](COP(=O)(O)OP(=O)(O)OP(=O)(O)O)[C@@H](O)[C@H]1O; pH 8, 37 °C).
The kcat/Km of `B2 (Tcur_2987 W376F)` is reported as 2.4e+06 M⁻¹ s⁻¹ (Nc1c(S(=O)(=O)O)cc(Nc2cccc(S(=O)(=O)CCOS(=O)(=O)O)c2)c2c1C(=O)c1ccccc1C2=O; pH 3, sigmoidal kinetics, added: H2O2 1 mM).
`Ptb (Listeria monocytogenes, UniProt Q8Y7B7)` gave a kcat/Km of 4.2e+06 M⁻¹ s⁻¹ (CCCCC(=O)SCCNC(=O)CCNC(=O)[C@H](O)C(C)(C)COP(=O)(O)OP(=O)(O)OC[C@H]1O[C@@H](n2cnc3c(N)ncnc32)[C@H](O)[C@@H]1OP(=O)(O)O; pH 7.5, 25 °C, apparent).
`ASRGL1 (Homo sapiens, UniProt Q7L266)` has a kcat/Km of 8000 ± 1300 M⁻¹ s⁻¹ (N[C@@H](CC(=O)N[C@@H](Cc1ccccc1)C(=O)O)C(=O)O; pH 7.4, 37 °C, NaCl 100 mM).
With `B3 (Paox H64Q)` the kcat/Km was 84000 ± 9000 M⁻¹ s⁻¹ (CC(=O)NCCCNCCCCNCCCN; pH 10, 30 °C).
`B4 (hdhb)` gave a kcat/Km of 9 M⁻¹ s⁻¹ (NC(=O)c1ccc[n+]([C@@H]2O[C@H](COP(=O)(O)OP(=O)(O)OC[C@H]3O[C@@H](n4cnc5c(N)ncnc54)[C@H](O)[C@@H]3O)[C@@H](O)[C@H]2O)c1; pH 8, 25 °C, cofactor varied).
The kcat/Km of `B5 (Pck1 A467G)` is reported as 15000 M⁻¹ s⁻¹ (C=C(OP(=O)(O)O)C(=O)O; pH 7.5, 25 °C).
`B6 (PduO F112H)` gave a kcat/Km of 140 ± 10 M⁻¹ s⁻¹ (Nc1ncnc2c1ncn2[C@@H]1O[C@H](COP(=O)(O)OP(=O)(O)OP(=O)(O)O)[C@@H](O)[C@H]1O; pH 8, 37 °C, anoxic, added: cob(I)alamin).
With `B7 (Rtr1 residues 1-226)` the kcat/Km was 6e+06 M⁻¹ s⁻¹ (Cc1cc(=O)oc2c(F)c(OP(=O)(O)O)c(F)cc12; pH 6, NaCl 150 mM, no metal added).
`B8 (asnB E349Q)` gave a kcat/Km of 450 M⁻¹ s⁻¹ (NC(=O)CC[C@H](N)C(=O)O; pH 8, 37 °C, 100 mM NaCl, glutaminase site, added: MgCl2; no ATP).
`BaiA1 (Clostridium scindens, UniProt P07914)` has a kcat/Km of 120000 M⁻¹ s⁻¹ (C[C@H](CCC(=O)SCCNC(=O)CCNC(=O)[C@H](O)C(C)(C)COP(=O)(O)OP(=O)(O)OC[C@H]1O[C@@H](n2cnc3c(N)ncnc32)[C@H](O)[C@@H]1OP(=O)(O)O)[C@H]1CC[C@H]2[C@@H]3[C@H](O)C[C@@H]4CC(=O)CC[C@]4(C)[C@H]3CC[C@]12C; pH 8.7, 37 °C, added: NADH).
The kcat/Km of `enzyme (Vitis vinifera, UniProt F6H697)` is reported as 454 M⁻¹ s⁻¹ (O=C(O)Cc1cccc2ccccc12; pH 8.6, 25 °C).
`B9 (putA E639A)` has a kcat/Km of 23 ± 11 M⁻¹ s⁻¹ (O=C(O)[C@@H]1CCCN1; pH 8, 23 °C).
`B10 (cyc1 V329M)` has a kcat/Km of 98 ± 3 M⁻¹ s⁻¹ (CC(C)=CCC/C(C)=C/CC/C(C)=C/CO[P@@](=O)(O)OP(=O)(O)O; pH 6.5, 30 °C, added: MgCl2 10 mM).

Excerpt of the above:
`B9 (putA E639A)` has a kcat/Km of 23 ± 11 M⁻¹ s⁻¹ (O=C(O)[C@@H]1CCCN1; pH 8, 23 °C).
`B10 (cyc1 V329M)` has a kcat/Km of 98 ± 3 M⁻¹ s⁻¹ (CC(C)=CCC/C(C)=C/CC/C(C)=C/CO[P@@](=O)(O)OP(=O)(O)O; pH 6.5, 30 °C, added: MgCl2 10 mM).
